Results gathered from unrelated publications.
Each line is one published result; not all experiments were run side by side. Numbers after ± are the reported error.

| SMILES | target | test | system | conditions | IC50 |
| --- | --- | --- | --- | --- | --- |
| CCS(=O)(=O)[C@H]1[C@H](O)[C@@H](N)[C@@H](O[C@H]2[C@H](O[C@@H]3O[C@H](CO)[C@@H](O[C@H]4O[C@@H](CN)[C@@H](O)[C@H](O)[C@H]4N)[C@H]3O)[C@@H](O)[C@H](N)C[C@@H]2N)O[C@@H]1CO | bacterial hybrid ribosome, human mitochondrial A site | cell-free translation, inhibitor |  |  | 207 µg/mL |
| CC(=O)N[C@H]1CSC(=O)[C@H](Cc2ccccc2)NC(=O)[C@H](Cc2ccccc2)NC(=O)COCCOCCNC1=O | AgrC (Staphylococcus aureus) | reporter gene, inhibitor | Staphylococcus aureus, AH1747 (MW2) | 24 h | 332 nM |
| NC[C@@H]1O[C@H](O[C@H]2[C@@H](O)[C@H](O[C@@H]3[C@@H](O)[C@H](N)C[C@H](N)[C@H]3O[C@H]3O[C@@H]4COCO[C@H]4[C@H](O)[C@H]3N)O[C@@H]2CO)[C@H](N)[C@@H](O)[C@@H]1O | Mycobacterium smegmatis ribosome G1491C | translation, cell-free luciferase synthesis |  |  | 522 ± 44.6 µg/mL |
| CC(=O)N[C@H]1CNC(=O)[C@H](Cc2ccccc2)NC(=O)[C@H](Cc2ccccc2)NC(=O)COCCOCCNC1=O | AgrC (Staphylococcus aureus) | reporter gene, inhibitor | Staphylococcus aureus, AH1872 (MN EV) | 24 h | > 10000 nM |
| CC[S+]([O-])C1C(CO)OC(OC2C(N)CC(N)C(O)C2OC2OC(CO)C(OC3OC(CN)C(O)C(O)C3N)C2O)C(N)C1O (mixture of isomers) | bacterial hybrid ribosome, human cytoplasmic A site | cell-free translation, inhibitor |  |  | 123 µg/mL |
| CC(=O)N[C@H]1CSC(=O)[C@H](Cc2ccccc2)NC(=O)[C@H](Cc2ccccc2)NC(=O)CCCCCCCCNC1=O | AgrC (Staphylococcus aureus) | reporter gene, inhibitor | Staphylococcus aureus, AH1677 (USA300 LAC) | 24 h | 468 nM |
| CCO[C@H]1[C@H](O)[C@@H](N)[C@@H](O[C@H]2[C@H](O[C@@H]3O[C@H](CO)[C@@H](O[C@H]4O[C@@H](CN)[C@@H](O)[C@H](O)[C@H]4N)[C@H]3O)[C@@H](O)[C@H](N)C[C@@H]2N)O[C@@H]1CO | Mycobacterium smegmatis ribosome G1491C | translation, cell-free luciferase synthesis |  |  | 259 ± 31.7 µg/mL |
| NC[C@@H]1O[C@H](O[C@H]2[C@@H](O)[C@H](O[C@@H]3[C@@H](O)[C@H](N)C[C@H](N)[C@H]3O[C@H]3O[C@H](CO)[C@@H](SCCF)[C@H](O)[C@H]3N)O[C@@H]2CO)[C@H](N)[C@@H](O)[C@@H]1O | bacterial hybrid ribosome, human mitochondrial A1555G A site | cell-free translation, inhibitor |  |  | 52 µg/mL |
| CC(=O)NC1C(OC2OC(CC(O)C3OC(n4ccc(=O)[nH]c4=O)C(O)C3O)C(O)C(O)C2NC(=O)COCc2ccc(N3CCC(Oc4ccc(OC(F)(F)F)cc4)CC3)cc2)OC(CO)C(O)C1O (stereo not shown) | MraY | enzyme activity, inhibitor |  |  | > 50000 nM |
| CCCS[C@H]1[C@H](O)[C@@H](N)[C@@H](O[C@H]2[C@H](O[C@@H]3O[C@H](CO)[C@@H](O[C@H]4O[C@@H](CN)[C@@H](O)[C@H](O)[C@H]4N)[C@H]3O)[C@@H](O)[C@H](N)C[C@@H]2N)O[C@@H]1CO | wild-type bacterial ribosome | cell-free translation, inhibitor |  |  | 0.07 µg/mL |
| COCOC[C@H]1O[C@H](O[C@H]2[C@H](O[C@@H]3O[C@H](CO)[C@@H](O[C@H]4O[C@@H](CN)[C@@H](O)[C@H](O)[C@H]4N)[C@H]3O)[C@@H](O)[C@H](N)C[C@@H]2N)[C@H](N)[C@@H](O)[C@@H]1O | Mycobacterium smegmatis ribosome G1491A | translation, cell-free luciferase synthesis |  |  | 83.7 ± 18 µg/mL |
| Cc1cc(Nc2cc(CN(C)C)cc(NC(=O)c3cc(CN(C)C)cc(Nc4ccnc5ccccc45)c3)c2)nc(N)n1 | human DNA polymerase theta | inhibitor |  |  | 14000 nM |
| CCCCCCCCC(=O)NCc1ccc(O)c(OC)c1 | mouse mAb 1-G12 | antibody binding, indirect competitive ELISA |  | with: coating antigen 3-OVA | > 4 µg/mL |
| CC(=O)N[C@H]1CSC(=O)[C@H](Cc2ccccc2)NC(=O)[C@H](Cc2ccccc2)NC(=O)CCCCCCCNC1=O | AgrC (Staphylococcus aureus) | reporter gene, inhibitor | Staphylococcus aureus, AH1872 (MN EV) | 24 h | 985 nM |
| CC[C@H](C)[C@H](NC(=O)[C@@H](NC(=O)[C@@H](NC(=O)[C@H](CCCNC(=N)N)NC(=O)[C@@H](N)CCCCN)C(C)C)C(C)C)C(=O)N[C@@H](CC(N)=O)C(=O)N[C@@H](CCCCN)C(=O)N[C@@H](CC(=O)O)C(=O)N[C@H](C(=O)O)[C@@H](C)O | Mamu-B*010:01 (Chinese rhesus macaque) | MHC binding, purified MHC |  |  | > 20000 nM |
| NC[C@@H]1O[C@H](O[C@H]2[C@@H](O)[C@H](O[C@@H]3[C@@H](O)[C@H](N)C[C@H](N)[C@H]3O[C@H]3O[C@H](CO)[C@@H](CCO)[C@H](O)[C@H]3N)O[C@@H]2CO)[C@H](N)[C@@H](O)[C@@H]1O | bacterial hybrid ribosome, human mitochondrial A site | cell-free translation, inhibitor |  |  | 31 µg/mL |
| CC[C@@H]1CN2CCc3c([nH]c4cccc(OC)c34)[C@@H]2C[C@@H]1/C(=C\OC)C(=O)OC | anti-compound rabbit polyclonal IgG | antibody binding, competitive indirect ELISA |  | 1× PBS antibody diluent | 2.25 µg/mL |
| CCCCCO[C@H]1[C@H](O)[C@@H](N)[C@@H](O[C@H]2[C@H](O[C@@H]3O[C@H](CO)[C@@H](O[C@H]4O[C@@H](CN)[C@@H](O)[C@H](O)[C@H]4N)[C@H]3O)[C@@H](O)[C@H](N)C[C@@H]2N)O[C@@H]1CO | Mycobacterium smegmatis ribosome G1491C | translation, cell-free luciferase synthesis |  |  | 230 ± 32.3 µg/mL |
| CC[C@@H](C)[C@@H](NC(=O)[C@@H](CCCCN)NC(=O)[C@H](NC(=O)[C@@H](CCC(N)=O)NC(=O)[C@@H](CCCNC(=N)N)NC(=O)[C@@H](CC(C)C)NC(=O)CNC(=O)[C@@H](Cc1ccccc1)NC(=O)CNC(=O)[C@@H](Cc1ccc(O)cc1)NC(=O)CNC(=O)[C@@H](CCCCN)NC(=O)[C@H](NC(=O)[C@@H](Cc1ccccc1)NC(=O)[C@H](NC(=O)[C@@H](CC(=O)O)NC(=O)[C@@H](CCCNC(=N)N)NC(=O)[C@@H](C)NC(=O)[C@@H](CO)NC(=O)[C@@H](CCCCN)NC(=O)CNC(=O)[C@@H](CC(C)C)NC(=O)[C@@H](CC(=O)O)NC(=O)[C@@H](C)NC(=O)[C@@H](Cc1ccc(O)cc1)NC(=O)[C@H](NC(=O)[C@H]1CCCN1C(=O)[C@H]1CCCN1C(=O)[C@H](NC(=O)[C@@H](C)NC(=O)[C@H](N)CCSC)C(C)C)[C@H](C)O)C(C)C)[C@H](C)O)[C@H](C)CC)C(=O)N[C@H](Cc1c[nH]c2ccccc12)C(=O)N[C@H](Cc1ccccc1)C(=O)N[C@H](CCC(N)=O)C(=O)N[C@H](CC(N)=O)C(=O)N[C@H](CCCNC(=N)N)C(=O)N[C@H](CCCNC(=N)N)C(=O)N[C@H](CCSC)C(=O)N[C@H](CCCCN)C(=O)N[C@H](Cc1c[nH]c2ccccc12)C(=O)N[C@H](CCCCN)C(=O)N[C@H](CCCCN)C(=O)O | cell death | PI staining flow cytometry | MEC1 | 90 min | 2200 nM |
| CC1OCC2OC(OC3C(N)CC(N)C(O)C3OC3OC(CO)C(OC4OC(CN)C(O)C(O)C4N)C3O)C(N)C(O)C2O1 (stereo not shown) | Mycobacterium smegmatis ribosome G1491C | translation, cell-free luciferase synthesis |  |  | 180 ± 45.3 µg/mL |
| CC[C@@H](C)[C@@H](NC(=O)[C@@H](CCCCN)NC(=O)[C@H](NC(=O)[C@@H](CCC(N)=O)NC(=O)[C@H](N)CCCNC(=N)N)[C@H](C)CC)C(=O)N[C@H](Cc1c[nH]c2ccccc12)C(=O)N[C@H](Cc1ccccc1)C(=O)N[C@H](CCC(N)=O)C(=O)N[C@H](CC(N)=O)C(=O)N[C@H](CCCNC(=N)N)C(=O)N[C@H](CCCNC(=N)N)C(=O)N[C@H](CCSC)C(=O)N[C@H](CCCCN)C(=O)N[C@H](Cc1c[nH]c2ccccc12)C(=O)N[C@H](CCCCN)C(=O)N[C@H](CCCCN)C(=O)N[C@H](CO)C(=O)N[C@H](Cc1c[nH]c2ccccc12)C(=O)N[C@@H](C(=O)N[C@H](Cc1c[nH]c2ccccc12)C(=O)N[C@H](CCC(=O)O)C(=O)N[C@H](CCCCN)C(=O)N[C@H](CCCCN)C(=O)N[C@H](CC(C)C)C(=O)N[C@H](CCC(=O)O)C(=O)N[C@@H](C(=O)N[C@H](C)C(=O)N[C@@H](C(=O)N[C@H](CC(N)=O)C(=O)N[C@H](CC(C)C)C(=O)N[C@H](C)C(=O)N[C@H](Cc1c[nH]c2ccccc12)C(=O)N[C@@H](C(=O)N[C@H](C)C(=O)NCC(=O)N[C@H](CC(N)=O)C(=O)N[C@H](CO)C(=O)N[C@H](CC(N)=O)C(=O)N[C@H](CCCCN)C(=O)N[C@H](Cc1c[nH]c2ccccc12)C(=O)N[C@@H](C(=O)N[C@H](Cc1c[nH]c2ccccc12)C(=O)N[C@H](CCCCN)C(=O)O)[C@H](C)O)[C@H](C)O)C(C)C)[C@H](C)O)[C@H](C)O | cell death | PI staining flow cytometry | MEC1 | 90 min | 1600 nM |
| CO[C@H]1[C@H](O)[C@@H](N)[C@@H](O[C@H]2[C@H](O[C@@H]3O[C@H](CO)[C@@H](O[C@H]4O[C@@H](CN)[C@@H](O)[C@H](O)[C@H]4N)[C@H]3O)[C@@H](O)[C@H](N)C[C@@H]2N)O[C@@H]1CO | Mycobacterium smegmatis ribosome G1491C | translation, cell-free luciferase synthesis |  |  | 242 ± 6.2 µg/mL |
| CC(C)S[C@H]1[C@H](O)[C@@H](N)[C@@H](O[C@H]2[C@H](O[C@@H]3O[C@H](CO)[C@@H](O[C@H]4O[C@@H](CN)[C@@H](O)[C@H](O)[C@H]4N)[C@H]3O)[C@@H](O)[C@H](N)C[C@@H]2N)O[C@@H]1CO | bacterial hybrid ribosome, human mitochondrial A site | cell-free translation, inhibitor |  |  | 121 µg/mL |
| COCO[C@H]1[C@H](O)[C@@H](N)[C@@H](O[C@H]2[C@H](O[C@@H]3O[C@H](CO)[C@@H](O[C@H]4O[C@@H](CN)[C@@H](O)[C@H](O)[C@H]4N)[C@H]3O)[C@@H](O)[C@H](N)C[C@@H]2N)O[C@@H]1CO | Mycobacterium smegmatis ribosome G1491C | translation, cell-free luciferase synthesis |  |  | 167 ± 11.3 µg/mL |
| CC(C)CS[C@H]1[C@H](O)[C@@H](N)[C@@H](O[C@H]2[C@H](O[C@@H]3O[C@H](CO)[C@@H](O[C@H]4O[C@@H](CN)[C@@H](O)[C@H](O)[C@H]4N)[C@H]3O)[C@@H](O)[C@H](N)C[C@@H]2N)O[C@@H]1CO | bacterial hybrid ribosome, human mitochondrial A site | cell-free translation, inhibitor |  |  | 180 µg/mL |

For quick reference, copied from above:
| SMILES | target | test | system | conditions | IC50 |
| --- | --- | --- | --- | --- | --- |
| COCOC[C@H]1O[C@H](O[C@H]2[C@H](O[C@@H]3O[C@H](CO)[C@@H](O[C@H]4O[C@@H](CN)[C@@H](O)[C@H](O)[C@H]4N)[C@H]3O)[C@@H](O)[C@H](N)C[C@@H]2N)[C@H](N)[C@@H](O)[C@@H]1O | Mycobacterium smegmatis ribosome G1491A | translation, cell-free luciferase synthesis |  |  | 83.7 ± 18 µg/mL |
